Measurements collected from several papers.
Every numbered part comes from another study and shows a few of its results, in no order. Substitutions count along the parent as printed.

Sample 1
Target: Centromere-binding protein 1, full length, N-terminal tag (CBF1, Saccharomyces cerevisiae, UniProt P17106, residues 1-351)
Chain of UniProt P17106 (whole entry, looked up): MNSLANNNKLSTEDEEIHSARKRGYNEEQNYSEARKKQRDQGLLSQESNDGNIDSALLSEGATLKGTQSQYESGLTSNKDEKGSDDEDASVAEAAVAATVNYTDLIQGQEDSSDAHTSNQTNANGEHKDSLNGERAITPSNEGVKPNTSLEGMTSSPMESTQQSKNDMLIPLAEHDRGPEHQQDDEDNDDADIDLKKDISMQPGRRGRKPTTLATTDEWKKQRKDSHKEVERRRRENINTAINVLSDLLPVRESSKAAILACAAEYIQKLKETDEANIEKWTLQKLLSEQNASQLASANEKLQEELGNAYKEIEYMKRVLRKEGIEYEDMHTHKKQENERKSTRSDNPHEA
Technique: protein-binding microarray
Form: double-stranded DNA, one strand shown
Matrix: in vitro
Concentration: 0.8 µM
Notes: whole 60-bp probe, no competitor
Reading: higher = stronger binding
Oligonucleotide	fluorescence intensity
CTAAGTTCATATTCTCACGTTTTTCGCAAGATATTCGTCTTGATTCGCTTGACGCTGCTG	644 a.u.
GAAATCAAGATAAATGGCACGTGTATGTACGGCTAGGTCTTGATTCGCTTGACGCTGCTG	6690 a.u.
GAAGCATGACTAGATGTCACGAATGTTTTGGAGTAGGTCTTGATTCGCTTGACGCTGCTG	603 a.u.
GAATGTTGTTGTCAACACATGAAAAGTTCCGTATAGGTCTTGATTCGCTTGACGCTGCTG	516 a.u.
GAAGTTCTAACTAAGCATCAGAACATAATACAATAGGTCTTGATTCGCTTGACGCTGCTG	507 a.u.
TGTACGAAGCTATATGATGAATCTATAGTAGTTAGGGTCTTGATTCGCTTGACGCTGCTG	525 a.u.
CTAGAGGTATGTCTATTGGTGACGCCTGGTCTGTTCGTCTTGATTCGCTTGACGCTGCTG	516 a.u.
GAATTAATGGCAGTGCACATGTTTAAGGACGTTTAGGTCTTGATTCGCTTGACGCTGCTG	660 a.u.
CTAAGTATCTTTGAGCACGTATCAGATAACTAATTCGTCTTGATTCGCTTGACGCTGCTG	550 a.u.
GAAAGCCCAAAACTTAACGTGCACCAACACGTGTAGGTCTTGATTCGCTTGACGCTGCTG	3510 a.u.
CTAAAACGCTTTGTGGGCATCAGGTTTAGATTATTCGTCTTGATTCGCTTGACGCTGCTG	491 a.u.
GAAACCCATAAACCACACGTTTAACTATTTGGGTAGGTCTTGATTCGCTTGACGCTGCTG	500 a.u.

Sample 2
Target: Histone acetyltransferase KAT6A, both winged helices, GST fusion (KAT6A, Homo sapiens, UniProt Q92794, residues 1-181)
Technique: protein binding microarray
Form: double-stranded DNA, one strand shown
Matrix: in vitro
Concentration: not given
Notes: 8-mer, flanks averaged, mean of 2 arrays, mostly near background
Baseline: not given
Reading: higher = stronger binding
Target sequence (chain): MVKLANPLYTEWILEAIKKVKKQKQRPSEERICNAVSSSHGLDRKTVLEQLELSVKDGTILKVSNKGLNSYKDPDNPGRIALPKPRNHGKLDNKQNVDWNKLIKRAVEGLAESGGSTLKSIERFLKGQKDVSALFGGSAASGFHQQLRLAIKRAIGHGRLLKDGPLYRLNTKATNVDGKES
Oligonucleotide	E-score
AAGCACAA	-0.201
ACATGACC	-0.0124
GCTTCAAA	-0.00284
AAATGAGG	-0.258
CCGATTCA	-0.124
CAGCCGTC	0.16
AGGACACG	0.0916
CCGGCAGG	0.17
AGGTCTTG	-0.137
AAACCGAC	0.118
ATCAGCAT	-0.16
CTAAGAGC	-0.0365
CTCCTTTC	-0.0212
ATGTGTGG	-0.164
ATGGTTAG	-0.0415
ACCATCAG	-0.0407
ACGTTTAT	0.101
ATCTGCAC	-0.0997

Sample 3
Target: RING finger protein unkempt homolog, zinc fingers 1-6, SBP tag (UNK, Homo sapiens, UniProt Q9C0B0, residues 30-357)
Chain of UniProt Q9C0B0 (30-357, looked up): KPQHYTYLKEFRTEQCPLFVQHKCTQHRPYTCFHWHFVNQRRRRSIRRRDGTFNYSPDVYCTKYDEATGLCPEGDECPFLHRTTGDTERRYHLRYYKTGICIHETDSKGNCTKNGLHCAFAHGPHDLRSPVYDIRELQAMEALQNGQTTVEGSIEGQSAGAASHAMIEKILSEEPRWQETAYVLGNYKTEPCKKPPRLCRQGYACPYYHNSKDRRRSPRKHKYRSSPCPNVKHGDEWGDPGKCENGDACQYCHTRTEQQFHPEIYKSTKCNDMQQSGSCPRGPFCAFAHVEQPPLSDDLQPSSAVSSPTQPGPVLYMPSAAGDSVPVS
Technique: RNA Bind-n-Seq
Form: RNA
Matrix: in vitro
Concentration: 100 nM
Notes: RNA with constant flanks, vertebrate orthologous sites, ends assumed
Baseline: input RNA pool
Reading: higher = stronger binding
Oligonucleotide	bound/input enrichment [ratio]
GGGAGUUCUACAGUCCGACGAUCAAAAUGCCUUCUGUUCCAUUAGGAAAAACAAAUGUAGUUCCCCCCAGUCUAAAACUUUAAUAGCUAUUUUUGAAAUGAAAAUGUUUAGAUUUUGUAAAUCAGCUGUUUCCACUACACAACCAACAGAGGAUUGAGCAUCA	0.746
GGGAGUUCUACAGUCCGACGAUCUGUAGUUUGUUUUUUAAUUUCAAGCAAAAUCUUAUUGUACUUGAAUGUGCCCUGUUUUGUUAGCACACCUAGACUUGCUGUAACUGUACUCAUGUCCCAGUAUGUACGUUCUUUCUAUGACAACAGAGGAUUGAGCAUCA	0.715
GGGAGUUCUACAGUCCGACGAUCUUGUAGGUUUCCAGAGUAGAUUUAGUCAUCUUCAUGGAAUGCCAGCAAACCAGAAUGCAUUGGUAGGUGCUUUUAUUACUGUUGGCUAAUGUGUAGAGGUGUUCGGGUUUGCUUUUUGUUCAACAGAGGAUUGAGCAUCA	0.738
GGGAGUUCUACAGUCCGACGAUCCACAUCUGGUGAUAUUUGGCCUGGCCUUUCAGCUUAUGAUAAUAGUCCUAGAUCACCCCAUAGUCCUUCACCUAUUGCUACACCACCUAGUCAGAGUUCAUCUUGCUCUGAUGCUCCCAUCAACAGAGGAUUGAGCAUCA	1.4
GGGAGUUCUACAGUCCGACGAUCAUUCAAACCUGUGGUGCCAUGGCCUCAUGUCGAAGGAGUAGAAGUGGACUUAGAGUCUAUUAGAAGAAAAAACAAGGCCAAAAAUGAACAAGAGCGCCAUGCUGGAGGAGAGAACCAGAACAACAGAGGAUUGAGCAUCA	0.469
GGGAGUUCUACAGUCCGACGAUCGCAAUAAAAUUGGAUGAAAUUUAUAAACAAUUCAAGGCAGUGACUUAAGCUUCAUAAGUAUUGUUGGUUUUUAAGUGGUUUACCUUUAUUUAAGCUGCUGCCCUGUGUUAAAUAAUACUCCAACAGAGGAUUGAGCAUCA	0.433
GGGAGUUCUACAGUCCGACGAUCAAGAUGGUGGUUGUACAUAAUUUCAUUUAGAAAAUAUAAACUUUCGUUUUGUUUUGAAACUAGGUAUUAAACUGGAAUAGAUAAUACAACCCUGAGAAUGGGGCACUUAUGCCCUCCAUUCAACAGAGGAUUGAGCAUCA	1.35
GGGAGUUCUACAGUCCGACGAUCGGGUGGCUGGUGGGGGAAUCCCAUGCCCUGGCCUUGCCUCCCCUCCUUGCCACCCGCUCCUAGUUAUUUUUUUUUUUAACCACCAUGUGAUUAAGGUCGGCGCUGCCUCCCCCCGACCCACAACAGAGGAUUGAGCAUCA	4.8
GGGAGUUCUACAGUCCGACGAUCGGCCCCAUCCUCGCCGAGAGGGUGGGCUCCACCAGGGGCGCUAGGCGUACAACCUUGGCAGGGUAGGACCUUGGCAGGGUAGCUGGGCUCGUGGGUUUAUAAUUUAAAGACGUUGCGACUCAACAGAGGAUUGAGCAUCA	0.314
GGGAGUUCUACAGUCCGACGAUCGUUGGGUCAUGAUCCUUAUAGGUUAGGUCAUGAUGCUUACAGGUUAGGACAGGACCCCUAUAGGUUAGGCCAUGAUCCCUACAGACUAACACCUGACCCCUACAGGAUGUCACCGAGACCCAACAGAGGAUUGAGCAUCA	0.383
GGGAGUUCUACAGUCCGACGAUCUGACCCUUCCCCUCAAAAGUAGAACUUUUUCAAAUGGUAUCACCAUCUCUUCUAAAAGUUUAGCAAUAGUAGAAGAAAAUGCUAAUGAGAUUAGGAAAUUCUGCUCAUUAUUCUGCAAACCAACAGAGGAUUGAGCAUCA	0.617

Sample 4
Target: ABI1, truncated, D143A, DHFR fusion (Arabidopsis thaliana, UniProt P49597)
Technique: DHFR PCA, dose-response
Matrix: yeast
Notes: Hill fit, mean, not affinity
Together with: (+)-ABA, dose series
Reading: lower = more sensitive
Starting sequence: PYL1, truncated, DHFR fusion (Arabidopsis thaliana, UniProt Q8VZS8); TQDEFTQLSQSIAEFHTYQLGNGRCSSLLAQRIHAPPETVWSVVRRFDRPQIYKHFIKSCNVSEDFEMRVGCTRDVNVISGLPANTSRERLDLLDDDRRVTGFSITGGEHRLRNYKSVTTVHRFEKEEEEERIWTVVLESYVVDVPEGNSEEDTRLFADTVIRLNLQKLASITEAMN
Change	ABA EC50 [µM]
L138Q	155
I79Q	5.02
S104V	100
V161F	7.91
V136Q	158
S26D	59.2
A13T	2.66
E151L	5.05
E139A	47
R69H	3.09
T86K	7.07
S42F	65.5
S117A	13.4
P37G	106
D159T	44.8
Q167F	12.5
S59F	26.3
S11E	1.58
M176Y	3.7
E64R	3.51
W134A	4.3
L29N	6.64
E64L	5.04

Sample 5
Target: CCNE1, cyclin fold, Cln2 fusion (human)
Technique: yeast growth competition, sequencing
Matrix: yeast
Notes: weak parent motif
Baseline: not given
Reading: higher = stronger binding
Starting sequence: PKN2 docking peptide (human); VSAVQKLDFSDTM
Change	normalised enrichment score
V4R	0.369
A3T	0.0301
V4N	-0.3
V1N	0.782
A3Y	0.372
F9I	-0.0537
S2L	0.372
L7A	-0.074
S2Y	1.13
T12G	0.49
D11I	-0.251
T12E	1.46
K6A	0.206
A3G	-0.0579
M13W	1.19
K6M	0.784

Sample 6
Target: Sal-like protein 4, full length isoform B (SALL4, Homo sapiens, UniProt Q9UJQ4-2, residues 1-616)
Technique: universal PBM
Form: double-stranded DNA, one strand shown
Matrix: in vitro
Concentration: not given
Notes: 8-mer, flanks averaged, mean of replicates
Reading: higher = stronger binding
Oligonucleotide	E-score
GAGCCTTA	-0.103
CCGTCACA	-0.245
ATCCGCCG	-0.227
TGGTACCA	-0.161
CCATTAAC	0.277
GAGTGCAC	-0.158
GCTGAAAA	-0.00417
CGGCCATA	-0.129
ACCGCGTC	-0.161
CTCCGCTA	-0.176
GACCTAGA	-0.088
GTTACCGA	-0.164
TATCAGGA	0.211
ACGCCACG	-0.23
GCAAACGA	0.0783
CCACCTTC	-0.132
CCATGCCC	-0.342
CTTCGCGC	-0.0733
AGAATGGG	-0.0563
GCATTTGA	0.0889
AGGTAGCC	-0.254
AGCACAAC	0.0353
CAATGCTC	-0.00414
AGTGGTCC	-0.191

A few entries again (sample 5):
Change	normalised enrichment score
A3T	0.0301
V4N	-0.3
V1N	0.782
A3Y	0.372
F9I	-0.0537
S2L	0.372
L7A	-0.074
